# Assay results collected from several papers.
# Parts stem from different laboratories: compare values within a part only. Changes are numbered by the printed parent chain.

# Study 1 — method: RNA Bind-n-Seq; molecule type: RNA; matrix: in vitro; concentration: 200 nM; setting: whole 134-nt RNA, ends assumed; together with: 150 mM KCl; relative to: input library; reading: higher = stronger binding
# Target: Fragile X messenger ribonucleoprotein 1, C-terminal low-complexity region (Fmr1, Mus musculus, UniProt P35922)
# Shared flanks, not repeated: GGGAGUUCUACAGUCCGACGAUC … UGGAAUUCUCGGGUGUCAAGG
Strand,log2 enrichment
CACAGACAACACGCACCCACACAGACACAGAGGGAACGGGUUGGGAUGGGGACAGGGUGCACAGCAGGGCGGGGUAGGACCCCAGCCCCU,1.39
UGCCUCGGGAGGAGCUGUUUGUGACAUCCAAGCUGUGGAACACCAAGCACCACCCCGAGGAUGUGGAGCCUGCCCUCCGGAAGACUCUGG,-1.56
CACAGACAACACGCACCCACACAGACACAGAGGGAAGGUGUUGGGAUGGGGACAGGGUGCACAGCAGGGCGGGGUAGGACCCCAGCCCCU,1.03
ACCAUGCAGGUGGGCAUCUUUGGGAAGUGGGGCAAGGGGGGGAUAGGGAGGGGGGUAACACUUUGGGAACAGGUUGUCCCAGGUCGUUUC,0.706
UGGAGCCCAACCUGUGCCGCUCAGUCCUCAUUGCCAACACGGUCCGGCAGAUCCAAGAGGAGAUGACGCAGGAUGGGACGUGGCGCACAG,-0.783
GCAGGAAGUAAAAACAAAUGGAAAUGCUUCGGAUAGUGGCAGGGGUGGGGGUUGCUAGGGAAAGGGUGGGAUGGGAGUGGGUAAAGAGUU,0.212
UCCUGUGCUACACAUCGUAUGUACCGAAUCGGGGAAAGGGGAAAAAGGGGAAAAAGGGGAAAGUAUUAUGUUACGCCGUUCGGAUCUGCA,0.298
UGGGAGGUGGAGUUUGUUUAUUUUUUUAGCUCAUUUCCAGGGGUGGGAAUUUUUUUUUAAUAUGUGUCAUGAAUAAAGUUGUUUUUGAAA,0.166
UCAAGUCCUGUGCUACACAUCGUAUGUACCGAAUCGGAGGAAAGGUUUUUUUGGAAAGUAUUAUGUUACGCCGUUCGGAUCUGCACUUCC,-0.74
GCAGGAAGAAAAAACAAAUGGAAAUGCUUCGGAUAGUGGCAGGGGUGGGGGUUGCUAAGGAAAGGGUGGGAUGGGAGUGGGUAAAGAGUU,0.194
UGGCUAGUCAGCAGCGGAUGUCCCCUCCAGGUUAAGAAAGCCGAACCAGAGCCGAUGCGAGAGGAGGAGAAAAUGAUUCCUCCUACGAAA,-0.0532
UCAAGUCCUGUGCUACACAUCGUAUGUACCGAAUCGGAAAGGAGGUUUUUUUGGAAAGUAUUAUGUUACGCCGUUCGGAUCUGCACUUCC,-0.526
UAACUUUAGAGUAGGAUCUGAUGGAUAUGGCAGUGGACGUGGAUUUGGGGAUGGCUAUAAUGGGUAUGGAGGAGGACCUGGAGGUGGCAA,0.398
UAUCUUUAGAGGAGGAUCUGAUGGAUAUGGCAGUGGACGUGGAUUUGGGGAUGGCUAUAAUGGGUAUGGAGGAGGACCUGGAGGUGGCAA,0.297

# Study 2 — target: CCNE2, cyclin fold, Cln2 fusion (human); method: yeast growth competition, sequencing; matrix: yeast; setting: strong parent motif; relative to: not given; reading: higher = stronger binding
# Starting sequence: WEE1 docking peptide (human); HKTFRKLRLFDTP; partner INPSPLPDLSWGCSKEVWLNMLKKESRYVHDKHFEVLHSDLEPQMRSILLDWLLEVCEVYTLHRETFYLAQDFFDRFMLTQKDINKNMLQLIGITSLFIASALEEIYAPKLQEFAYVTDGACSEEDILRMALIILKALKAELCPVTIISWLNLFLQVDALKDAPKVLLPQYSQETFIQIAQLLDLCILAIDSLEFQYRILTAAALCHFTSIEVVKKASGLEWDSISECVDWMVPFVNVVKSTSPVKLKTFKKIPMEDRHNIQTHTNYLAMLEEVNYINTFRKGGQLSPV
Substitution,normalised enrichment score
HKTFGKLRLFDTP [R5G],0.276
HKTFRKLRLFDTR [P13R],0.511
HKTFRKLRLFYTP [D11Y],0.532
HKTFRKLRLFDNP [T12N],1.43
HKTFRKMRLFDTP [L7M],-0.376
HKTFRKNRLFDTP [L7N],0.367
HKTKRKLRLFDTP [F4K],0.709
HKTFRKLRLFDTS [P13S],1.02
HKSFRKLRLFDTP [T3S],0.0482
HKTFRKLRLFDKP [T12K],0.685
HKTFRKLRLGDTP [F10G],0.495
HFTFRKLRLFDTP [K2F],-0.0596
HKTFRKLRLFDTQ [P13Q],0.212
HKMFRKLRLFDTP [T3M],1.03
HKTSRKLRLFDTP [F4S],0.744
HKTFRRLRLFDTP [K6R],0.948

# Study 3 — method: protein-binding microarray; molecule type: double-stranded DNA, one strand shown; matrix: in vitro; concentration: 940 nM top; setting: 60-bp whole probe; together with: salmon DNA 0.4 mg/ml; relative to: random background probes; reading: higher = stronger binding; shared flanks, not repeated: GCCTAGCAC … GTCTTGATTCGCTTGACGCTGCTG
# Target: Interferon regulatory factor 5, full length, phosphomimetic (IRF5, Homo sapiens, UniProt Q13568-2, residues 1-514, S451D/S453D/S456D/S462D)
Strand,fitted relative affinity [z-score]
TTAGGTCTCGGACTGGGATAGTGCTAG,1.18
TTAGATATCAGTTCCGATTAGTGCTAG,1.24
TTAGGTTTCCTTCTCCTTTCGTGCTAG,2.3
GACGGTTTCCTTTTCCCGACGTGCTAG,3.58
GTAGGTATCGGGTATCGGTTAGTGCTA,5.89
GACGCTATCGGTTTCGGGACGTGCTAG,4.05
AATCTTTTCACTTTCTTTAAGTGCTAG,2.21
TTAAGACTGCTACTGCTTTAGTGCTAG,-0.302
TCTCTGTTCTTTTCAGTCCCGTGCTAG,6.32
GAAAGAATCACAACTAGGAAGGTGCTA,0.206
TCTCATTCCAATTCTTTTTATGTGCTA,7
TTAGGTATCGGCATCGGTTAGTGCTAG,4.94
GACGGTCTCGGATTGGGGACGTGCTAG,0.867
TTTACTTTCTATGTCTGTTTGTGCTAG,3.69
ATCCATCTCAAGTAGCCTAGCGTGCTA,0.189
TTAGGTCTCTGTTTCGGTTAGTGCTAG,4.95
GACGATAACAGACTGGAGACGTGCTAG,-0.46
TTAGAACTGAGACGGGATTAGTGCTAG,-0.493

# Study 4 — method: protein-binding microarray; molecule type: double-stranded DNA, one strand shown; matrix: in vitro; concentration: not given; reading: higher = stronger binding
# Target: Myc proto-oncogene protein, bHLH-zipper, MAX partner unstated (MYC, Homo sapiens, UniProt P01106, residues 368-449)
# Chain of UniProt P01106 (368-449, looked up): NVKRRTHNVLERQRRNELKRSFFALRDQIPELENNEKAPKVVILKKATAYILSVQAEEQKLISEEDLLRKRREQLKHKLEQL
# Setting: k-mer, scored over probes, only values ≥0.25
Strand,E-score
CCGTACAC,0.28
CCGCCCAC,0.276
CCTCCCCG,0.325
CGTGCGCA,0.404
CCACGCTA,0.388
CATGCCTC,0.343
ACCATGCA,0.399
CGAGCACG,0.348
GACCGCAC,0.278
AAAGCACG,0.323
CCCCACGA,0.264
CCACGTCG,0.332
ACGTGTGC,0.454
AACATGCA,0.312

# Study 5 — method: RNA Bind-n-Seq; molecule type: RNA; matrix: in vitro; concentration: 365 nM; relative to: no-protein control; reading: higher = stronger binding
# Target: RNA binding protein fox-1 homolog 2, RRM domain, GST-SBP tag (RBFOX2, Homo sapiens, UniProt O43251-10, residues 100-194)
# Setting: natural RNA segment, single round, ends assumed
# Shared flanks, not repeated: GGGAGUUCUACAGUCCGACGAUC … UGGAAUUCUCGGGUGCCAA
# Target sequence (chain): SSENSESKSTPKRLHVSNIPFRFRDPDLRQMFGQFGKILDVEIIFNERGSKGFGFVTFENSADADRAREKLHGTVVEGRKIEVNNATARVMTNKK
Strand,RBNS enrichment (R)
ACCUGAAAUUGUCCUUUGGACUCCUAGACCCUUCUUCCCCGAUGUGUUUUGUAUGUGGUUAUAAAAUUGUAGACUUUUGUGAUUUUGCCAAAGUUGUAGCUAAAUAUUUA,0.585
GUUAUUUAAACAGCACUAGUACUGUACACUGGUUUUCCCUUGUGUUUGCUGUUGCACACUGAUUGCUAAGGGUGCAUCCAUUCUAAGCAUUGAAUACUCCAUCCCCUUCC,0.754
UUCUUGAUCAUUGAAUGUGAGACCCUUCUAACAUGAUUUGAGAAGCUGUACAAGUAUAGGCAGAGUUAUUUUCCUGUUUACAUUUUUUUUUUGUUUUGGGGAAAAAAUUG,0.438
UGUUCCGUGGGGUUACAUUUGCUUAAGGAUACACCUUACUUUUUAAUAAAUGGUUUUGAUUGUUCAAACUAAUUUCUAGCUACCUGAAUAAUUCACAGAUUAUAGCUUAU,0.419
AAGAUGACCAGCAAUGCCUGUAGAAGGCUUUGUCCGUUUUUGGCAGAAGGCCUAGGGCAUCGAAAACUCAGCCUUUUCACUCGUAGCUGAAAAUGGGACUAUUUUGGUAU,0.346
CUGUGUUUUUUCAUCUUGUUUAGGAAUGUUUUGAGAUUAAUGUGCUUAAAAGUCCUACGUGACUGAUUUUAAACAUUGUGAUAAAAUUAAUUUUCAGUAGAAUAGUUGAA,0.572
UAGGCAGAUAUAUAUGCUAUCUUACAGCUAAUUAUGAAAUUGAAUGAAAAUCCAUUGUUAUCUUAGGGAUUAGUUUUGAAAAGCCCCCGUUUAUAUACAUUUGCCCUAAC,1.89
CUCUUGACACCAUAGCAGAGCAUCUCCGCAAGGUCCAUCCUCCGGAAUGAGGCUGUUGGGGUGUCCUAACCCAGGUCCUUGUGCUUCACUGACAGUUUGCUCACAGGUUA,0.271
UUAUCUAGAGAGCUUGGUUAAUCUUUCCAUAUUAUUUGUAGUAUUGGUCACAAAUGCUGUUCCCUCUUAGCCUCAUUCUGUGCAACCAAGUGCAUAUAAGAUGCCCUGAA,0.345
AGCCAAUGGGAAACCAAAAGGAGCUCACUUCCUGUUCUUCCUAGCUCCCCUCCCUGCCGCUGUGCUCCGCUCCUCCCCACACUUCCUUGCUACAGUUCCCAGCUGCUGUA,0.332
AGGAAAGAUGUAAUGCAAAGCUGAUUGUUUAAUGUCUUACAGAUUUACACUGUCUUUAAAAGGCCAAAUAAGGCUGGGCGCAGUGGCUCACACCUGUAAUCCCAACAUUU,0.269
AAGGUAUGUAUCCUGCAGUAGUUAAGCCCUUAAAUAAUUGGGAGUUGGGAAAUCGGAAUCAAAGUAUUGGUGCCAGCUCACUGAAGAUCUGAUUGGGUCAACAGUUGAUU,2.41

# Study 6 — method: RNAcompete; molecule type: RNA; matrix: in vitro; concentration: 20 nM; setting: 7-mer, probes averaged, single round; relative to: mean of 7-mers; reading: higher = stronger binding
# Target: PABPC1L2, full length, GST fusion (mouse, UniProt A0ABA7IW68)
# Construct (chain): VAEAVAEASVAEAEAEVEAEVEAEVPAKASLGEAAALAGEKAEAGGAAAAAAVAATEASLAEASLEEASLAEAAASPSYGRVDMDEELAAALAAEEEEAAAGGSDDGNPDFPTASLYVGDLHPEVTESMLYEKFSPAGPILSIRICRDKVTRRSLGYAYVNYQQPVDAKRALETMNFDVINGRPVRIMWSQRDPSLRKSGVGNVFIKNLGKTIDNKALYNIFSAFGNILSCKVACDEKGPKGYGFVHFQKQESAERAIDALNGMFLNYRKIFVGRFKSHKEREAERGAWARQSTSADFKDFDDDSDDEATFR
Strand,7-mer Z-score
GCGUUGC,-0.0518
CUUAGCU,-0.302
ACCUACC,-0.248
UAAGCCG,-0.211
ACGUACA,0.0696
AACAGAG,0.833
AUGGUCG,-0.0464
GAAGAUA,0.138
GAUCUCA,-0.168
UUCUCUA,-0.246
CUGAAAC,-0.0192
CCUAAGA,-0.117
AGGGACU,0.234
ACUCCCG,-0.251
CUUAAGC,-0.229
CUGCCAG,-0.307
CACUCUU,-0.382
CUGGUCA,-0.135
ACUAGAC,-0.103
AGUAGUA,-0.0464
UGUCCAA,-0.0863
CUCUUUG,-0.458
CGAUCUC,-0.316
CAGCUAG,-0.119
CUUUUUG,0.177
